Results of several laboratories.
Protocols differ between the studies behind these lines. Values joined by “and” are separate records of one study, mostly repeats; a detail may differ. Numbers after ± are the reported error.
Chain of UniProt P48067 (whole entry, looked up): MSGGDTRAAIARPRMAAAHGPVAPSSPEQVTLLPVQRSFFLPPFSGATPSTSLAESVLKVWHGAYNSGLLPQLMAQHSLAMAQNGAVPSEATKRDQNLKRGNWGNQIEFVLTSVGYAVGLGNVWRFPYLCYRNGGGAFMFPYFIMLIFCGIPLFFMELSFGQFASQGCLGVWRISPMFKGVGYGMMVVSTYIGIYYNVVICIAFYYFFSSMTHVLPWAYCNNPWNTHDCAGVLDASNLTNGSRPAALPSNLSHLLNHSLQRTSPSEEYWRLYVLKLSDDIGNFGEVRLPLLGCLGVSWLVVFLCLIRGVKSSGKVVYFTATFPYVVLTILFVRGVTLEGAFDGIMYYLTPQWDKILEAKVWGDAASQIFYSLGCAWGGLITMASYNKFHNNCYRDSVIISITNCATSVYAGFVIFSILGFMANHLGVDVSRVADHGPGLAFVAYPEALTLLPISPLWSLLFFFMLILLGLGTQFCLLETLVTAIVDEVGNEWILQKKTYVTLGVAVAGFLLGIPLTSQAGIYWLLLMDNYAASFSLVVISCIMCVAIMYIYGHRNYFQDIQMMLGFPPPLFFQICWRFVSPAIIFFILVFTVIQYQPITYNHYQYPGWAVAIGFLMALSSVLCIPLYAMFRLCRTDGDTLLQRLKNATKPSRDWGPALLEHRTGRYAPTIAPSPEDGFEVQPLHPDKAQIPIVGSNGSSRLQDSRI
Chain of UniProt Q64663 (whole entry, unmodified, looked up): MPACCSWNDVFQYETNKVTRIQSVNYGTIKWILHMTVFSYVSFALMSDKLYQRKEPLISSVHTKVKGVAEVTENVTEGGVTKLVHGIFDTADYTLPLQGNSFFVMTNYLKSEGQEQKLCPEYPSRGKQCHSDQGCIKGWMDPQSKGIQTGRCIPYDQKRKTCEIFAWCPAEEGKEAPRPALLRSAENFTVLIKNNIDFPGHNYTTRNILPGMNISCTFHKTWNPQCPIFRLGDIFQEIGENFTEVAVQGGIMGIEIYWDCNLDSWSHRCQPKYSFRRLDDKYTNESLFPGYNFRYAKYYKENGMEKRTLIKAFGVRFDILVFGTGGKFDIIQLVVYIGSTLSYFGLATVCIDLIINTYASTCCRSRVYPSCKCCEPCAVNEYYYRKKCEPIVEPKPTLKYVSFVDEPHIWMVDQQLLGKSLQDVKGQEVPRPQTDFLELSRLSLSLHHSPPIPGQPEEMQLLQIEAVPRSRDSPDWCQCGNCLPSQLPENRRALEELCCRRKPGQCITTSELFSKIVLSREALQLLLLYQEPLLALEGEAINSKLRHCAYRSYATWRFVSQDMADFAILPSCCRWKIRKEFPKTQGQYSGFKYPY

Substance	target or system	assay	system	conditions	scale	quantity	value
NLLQWITQV	Jurkat T cells expressing 1G4 TCR	NFAT-eGFP reporter, fluorescence microscopy	peptide	concentration not given, HLA-A*02:01 NY-ESO system	–	reporter activation	25.8%
FNA / CGLSGLGVA-NH2 ([18F]FNA-labelled, C-amide)	–	gamma counting	peptide, healthy mice, Harderian glands	60 min	–	tissue uptake	0.32 %ID/g
GLGQWISQA	Jurkat T cells expressing 1G4 TCR	NFAT-eGFP reporter, flow cytometry	peptide	concentration not given, HLA-A*02:01 NY-ESO system	–	reporter activation	0.5%
ILEAAKSIAAATSALVKAASAAQRE	vinculin head domain Vd1	complex rupture, AFM single-molecule force spectroscopy	peptide	traces traces, C-terminal pulling, 800 nm/s	–	rupture force FWHM lower side	28.5 pN
Peginesatide	UT7/EPO	RT-qPCR, refers to: CD80	–	concentration not given, 90 min	baseline: vehicle	mRNA fold induction	2.3 fold
GLLEWVSMV	Jurkat T cells expressing 1G4 TCR	NFAT-eGFP reporter, fluorescence microscopy	peptide	concentration not given, HLA-A*02:01 NY-ESO system	–	reporter activation	0.0108%
Ac-LRKLRKRLLRDWLKAFYDKVAEKLKEAF-NH2 (N-acetyl, C-amide)	THP-1-derived macrophages	real-time PCR	peptide	concentration not given	baseline: control	apoE mRNA level	no effect
ALLEWVNQC	Jurkat T cells expressing 1G4 TCR	NFAT-eGFP reporter, fluorescence microscopy	peptide	concentration not given, HLA-A*02:01 NY-ESO system	–	reporter activation	0.15%
SEKHFRETEV	human MAGI1-3/6 PDZ construct (MBP fusion)	automated holdup	peptide, crude extract	concentration not given, corrected by standard peak, unit not given	baseline: biotin control resin, higher = stronger binding	binding intensity	0.29
maraviroc	HIV-1 ADA	viral replication, qPCR	HIV-infected mice, brain	ip, 120 mg/kg twice daily, 3 weeks post-infection, normalized to CD45+ cells	baseline: untreated HIV-infected mice	HIV-1 LTR decrease	52 fold
TLIMWIERV	Jurkat T cells expressing 1G4 TCR	NFAT-eGFP reporter, fluorescence microscopy	peptide	concentration not given, HLA-A*02:01 NY-ESO system	–	reporter activation	0.00248%
methyl-β-cyclodextrin	Sodium- and chloride-dependent glycine transporter 1 (SLC6A9, Homo sapiens, UniProt P48067)	transport activity, [3H]glycine uptake	–	3.5 mg/mL, 1 min, added: glycine 75 µM	higher = more transport	glycine uptake rate	21.6 a.u. and 21.9 a.u. and 27.5 a.u. and 29 a.u. and 28.8 a.u.
Polymyxin B	Staphylococcus aureus	DiSC3(5) fluorescence	–	concentration not given, 42 min	higher = more depolarisation	membrane depolarisation	780 a.u. and 552 a.u. and 608 a.u.
cotadutide	–	–	C57BL/6J mouse, AMLN diet NASH model	dose not given, terminal	–	plasma cholesterol	174 ± 8 mg/dL
triosephosphate isomerase	–	co-immunoprecipitation	human plasma	unit not given, added: Band 3 peptide 1-56 bait	baseline: negative control	co-IP enrichment	0.305
MTVCNASQRQAHAQATAVSL	PC-3 prostate cancer	phage binding output/input	peptide	–	baseline: control phage	selectivity ratio	0.51 ± 0.13
SEC11A	–	co-immunoprecipitation	human RBC membrane	DSSO crosslinker, unit not given, added: Band 3 peptide 1-56 bait	baseline: negative control	co-IP enrichment	37.1
colistin	Acinetobacter baumannii	broth microdilution	clinical isolate RKI-No_70/16	–	–	MIC	64 µg/mL
hemoglobin beta	–	co-immunoprecipitation	human plasma	unit not given, added: Band 3 peptide 1-56 bait	baseline: negative control	co-IP enrichment	1.75
ALLQWVSQV	Jurkat T cells expressing 1G4 TCR	NFAT-eGFP reporter, flow cytometry	peptide	concentration not given, HLA-A*02:01 NY-ESO system	–	reporter activation	70.9%
human delta-aminolevulinic acid dehydratase	–	co-immunoprecipitation	human RBC membrane	unit not given, added: Band 3 peptide 1-56 bait	baseline: negative control	co-IP enrichment	0

Substance	target or system	assay	system	conditions	scale	quantity	value
PKRSFIESNV	human MAGI1-2/6 PDZ construct (MBP fusion)	automated holdup	peptide, crude extract	concentration not given, uncorrected, unit not given	baseline: biotin control resin, higher = stronger binding	binding intensity	0.451
CLMTWLDVV	Jurkat T cells expressing 1G4 TCR	NFAT-eGFP reporter, fluorescence microscopy	peptide	concentration not given, HLA-A*02:01 NY-ESO system	–	reporter activation	0.00399%
milbemycin oxime	Saccharomyces cerevisiae	cell growth	Pdr5 deleted, Cdr1 overexpressed	2^-4.381 µg/mL	–	OD600	0.967 and 0.98 and 1.02
GSGAGKETEC	human MAGI1-2/6 PDZ construct (MBP fusion)	surface plasmon resonance	peptide	concentration not given	higher = stronger binding	normalised SPR binding response	0 normalised RU
11-deoxycorticosterone	human CYP11B2	stopped-flow kinetic modelling	–	Model, branched, 4-state, CS, added: equimolar adrenodoxin	–	Kd	9.05 µM
epoetin alfa	UT7/EPO	microarray, refers to: THBS1 mRNA (probe set 235086_at)	–	5 U/mL, 90 min	baseline: vehicle	mRNA level	2.8 fold
GSGAGSETVV	human SCRIB PDZ3-4 tandem (MBP fusion)	automated holdup	peptide, purified PDZ protein	concentration not given, unit not given	baseline: biotin control resin, higher = stronger binding	binding intensity	0.281
BzATP	P2X purinoceptor 7 (P2rx7, Rattus norvegicus, UniProt Q64663, R125A)	ion current, agonist, two-electrode voltage clamp	Xenopus oocytes	0.4115 µM	–	normalized current	0.0113 and 0.0991 and 0.0768
USP14	–	co-immunoprecipitation	human RBC cytosol	unit not given, added: Band 3 peptide 1-56 bait	baseline: negative control	co-IP enrichment	0
QSARYRDTEL	human MAGI1-3/6 PDZ construct (MBP fusion)	automated holdup	peptide, crude extract	concentration not given, uncorrected, unit not given	baseline: biotin control resin, higher = stronger binding	binding intensity	0.105
TCP-1 alpha	–	co-immunoprecipitation	human RBC cytosol	unit not given, added: Band 3 peptide 1-56 bait	baseline: negative control	co-IP enrichment	0
ACDDQNPWRAYLDLLFPTDTLLLDLLW	–	ex vivo fluorescence imaging	peptide, BALB/c mice, 4T1 tumour-bearing, kidney	intravenous, 5 nmol, 48 h post-injection	higher = more uptake	mean fluorescence intensity	918 ± 226 a.u.
thimet oligopeptidase	–	co-immunoprecipitation	human RBC cytosol	DSSO crosslinker, unit not given, added: Band 3 peptide 1-56 bait	baseline: negative control	co-IP enrichment	0
GGWVEKETYY	human MAGI1-3/6 PDZ construct (MBP fusion)	automated holdup	peptide, purified PDZ protein	concentration not given, unit not given	baseline: biotin control resin, higher = stronger binding	binding intensity	0.0147
caspofungin	–	–	adult ICU patients, mITT, serum	dose not given, EOT	–	magnesium	0.7 mmol/L
CTCATACTCT	Salmonella enterica Typhimurium	RNA-seq, refers to: SL1344_3670 mRNA	peptide, SL1344	5 µM, 15 min	baseline: water control	log2 fold change	-2.25
GSGAGIESNV	human MAGI1-2/6 PDZ construct (MBP fusion)	automated holdup	peptide, crude extract	concentration not given, uncorrected, unit not given	baseline: biotin control resin, higher = stronger binding	binding intensity	0.137
SLLQWVSMV	Jurkat T cells expressing 1G4 TCR	NFAT-eGFP reporter, fluorescence microscopy	peptide	concentration not given, HLA-A*02:01 NY-ESO system	–	reporter activation	0.00797%
TASPAKETSF	human MAGI1-3/6 PDZ construct (MBP fusion)	surface plasmon resonance	peptide	concentration not given	higher = stronger binding	normalised SPR binding response	0 normalised RU
UBE2I	–	co-immunoprecipitation	human plasma	no crosslinker, unit not given, added: Band 3 peptide 1-56 bait	baseline: negative control	co-IP enrichment	0

Repeated from above:
Substance	target or system	assay	system	conditions	scale	quantity	value
caspofungin	–	–	adult ICU patients, mITT, serum	dose not given, EOT	–	magnesium	0.7 mmol/L
GGWVEKETYY	human MAGI1-3/6 PDZ construct (MBP fusion)	automated holdup	peptide, purified PDZ protein	concentration not given, unit not given	baseline: biotin control resin, higher = stronger binding	binding intensity	0.0147
TASPAKETSF	human MAGI1-3/6 PDZ construct (MBP fusion)	surface plasmon resonance	peptide	concentration not given	higher = stronger binding	normalised SPR binding response	0 normalised RU
SLLQWVSMV	Jurkat T cells expressing 1G4 TCR	NFAT-eGFP reporter, fluorescence microscopy	peptide	concentration not given, HLA-A*02:01 NY-ESO system	–	reporter activation	0.00797%
hemoglobin beta	–	co-immunoprecipitation	human plasma	unit not given, added: Band 3 peptide 1-56 bait	baseline: negative control	co-IP enrichment	1.75
